# Experimental data from different studies.
# Each numbered part is a random draw from the data of one study; scales do not carry over between parts. Several values in a cell are separate wells, animals, samples, runs or records.
# Chain of UniProt Q9NYV4 (whole entry, looked up): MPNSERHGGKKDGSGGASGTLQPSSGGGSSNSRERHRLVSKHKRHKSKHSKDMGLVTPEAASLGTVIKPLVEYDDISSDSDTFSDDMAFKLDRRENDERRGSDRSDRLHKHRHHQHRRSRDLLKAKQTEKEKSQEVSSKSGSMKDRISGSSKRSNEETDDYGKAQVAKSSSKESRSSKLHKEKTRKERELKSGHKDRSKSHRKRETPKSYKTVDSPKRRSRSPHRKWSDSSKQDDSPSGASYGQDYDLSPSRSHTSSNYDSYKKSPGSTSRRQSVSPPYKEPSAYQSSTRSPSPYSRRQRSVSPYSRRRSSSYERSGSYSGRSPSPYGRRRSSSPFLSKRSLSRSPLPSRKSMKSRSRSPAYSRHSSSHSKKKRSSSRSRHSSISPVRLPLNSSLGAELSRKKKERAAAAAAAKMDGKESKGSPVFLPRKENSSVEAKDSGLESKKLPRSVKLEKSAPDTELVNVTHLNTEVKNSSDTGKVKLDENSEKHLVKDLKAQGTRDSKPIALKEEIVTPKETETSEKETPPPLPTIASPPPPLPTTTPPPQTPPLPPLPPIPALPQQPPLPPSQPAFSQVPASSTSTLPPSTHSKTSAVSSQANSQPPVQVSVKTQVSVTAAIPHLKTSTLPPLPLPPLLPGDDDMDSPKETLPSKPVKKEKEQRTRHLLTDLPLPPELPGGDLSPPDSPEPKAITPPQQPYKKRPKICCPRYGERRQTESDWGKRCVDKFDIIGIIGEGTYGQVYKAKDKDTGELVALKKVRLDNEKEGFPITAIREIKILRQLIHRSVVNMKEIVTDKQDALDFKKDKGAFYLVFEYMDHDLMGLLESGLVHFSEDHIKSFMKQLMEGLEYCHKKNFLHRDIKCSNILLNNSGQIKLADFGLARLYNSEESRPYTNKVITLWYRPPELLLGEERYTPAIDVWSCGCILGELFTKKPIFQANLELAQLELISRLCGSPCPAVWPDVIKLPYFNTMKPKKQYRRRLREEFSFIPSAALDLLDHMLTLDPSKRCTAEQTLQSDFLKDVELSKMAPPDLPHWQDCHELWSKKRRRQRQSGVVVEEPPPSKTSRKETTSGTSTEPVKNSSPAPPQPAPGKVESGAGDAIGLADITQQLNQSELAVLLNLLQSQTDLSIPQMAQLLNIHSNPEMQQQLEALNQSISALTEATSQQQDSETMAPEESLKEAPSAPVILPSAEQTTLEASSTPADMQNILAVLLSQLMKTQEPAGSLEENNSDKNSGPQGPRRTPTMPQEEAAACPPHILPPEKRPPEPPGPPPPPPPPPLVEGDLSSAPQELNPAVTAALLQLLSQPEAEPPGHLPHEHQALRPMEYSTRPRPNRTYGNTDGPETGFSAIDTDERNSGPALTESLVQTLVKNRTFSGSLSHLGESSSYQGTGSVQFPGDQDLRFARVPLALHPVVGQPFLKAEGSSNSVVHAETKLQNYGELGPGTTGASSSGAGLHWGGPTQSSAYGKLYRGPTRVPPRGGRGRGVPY

# Set 1
# Cell line: Gaucher fibroblasts L444P/L444P
# Technique: 4-MUG hydrolysis, cell lysate
# Concentration: 10 µM
# Baseline: DMSO
Compound,GCase activity
Ic1ccc(Nc2nc(NCCN3CCOCC3)nc(N3CCCC3)n2)cc1,104% and 101% and 91.9% and 86.6% and 93.7%
Ic1ccc(Nc2nc(NCCc3c[nH]c4ccccc34)nc(NCCN3CCOCC3)n2)cc1,105% and 96.7% and 88.8% and 101%
Ic1ccc(Nc2nc(N3CCOCC3)nc(N3CCOCC3)n2)cc1,52.2% and 197% and 182% and 202%
Fc1ccc(Nc2nc(NCCN3CCOCC3)nc(N3CCOCC3)n2)cc1,104% and 105% and 106% and 109% and 99.7%
Ic1ccc(Nc2nc(NCCN3CCOCC3)nc(N3CC4CCC(C3)O4)n2)cc1,103% and 134% and 110% and 138%
CCOc1ccc2nc(Sc3nc(Nc4ccc(OC)cc4)nc(N4CCOCC4)n3)sc2c1,223% and 248% and 238% and 227% and 214%
Ic1cccc(Nc2nc(NCCN3CCOCC3)nc(N3CCOCC3)n2)c1,130% and 154% and 133% and 124% and 116% and 114%

# Set 2
# Compound: O=C(O)C1(O)Oc2cc(Cl)ccc2N(Cc2ccccc2)C1=O (stereo not shown)
organism,assay,system,conditions,how to read,inhibition
Arabidopsis thaliana,root length,Col-0,"12.5 µg/mL, 7 days, seed germination, dark",,7.7%
Arabidopsis thaliana,root length,"Col-0, seedlings",100 µg/mL,baseline: water control,94.9%
Eclipta prostrata,fresh weight,,"150 g ai/ha, post-emergence treatment",,65.3% and 61.4% and 61%
Arabidopsis thaliana,root length,"Col-0, seedlings",100 µg/mL,,94.9%
Alopecurus japonicus,fresh weight,,"150 g ai/ha, pre-emergence treatment",,58.1% and 57.4% and 61.5%
Arabidopsis thaliana,root length,Col-0,"6.25 µg/mL, 7 days, seed germination, dark",,6.4%
Arabidopsis thaliana,hypocotyl length,Col-0,"50.0 µg/mL, 7 days, seed germination, dark",,36.7%
Arabidopsis thaliana,root length,"Col-0, seedlings",3.125 µg/mL,baseline: water control,6.05%
Oryza sativa,fresh weight,,"soil surface spray, 150 g ai/ha, 21 days, pre-emergence crop safety",,1.4% and 1%
Arabidopsis thaliana,root length,"Col-0, seedlings",12.5 µg/mL,,7.73%

# Set 3
# Target: E3 ubiquitin-protein ligase NEDD4, HECT domain (Homo sapiens, UniProt P46934)
# Observed: enzyme activity
# Action: inhibitor
# Technique: Ub-TR-FRET
# Medium: HECT domain
# Concentration: 1.235 µM
# Direction: higher = more chain formation
# Target sequence (P46934 938-1319, limits assumed): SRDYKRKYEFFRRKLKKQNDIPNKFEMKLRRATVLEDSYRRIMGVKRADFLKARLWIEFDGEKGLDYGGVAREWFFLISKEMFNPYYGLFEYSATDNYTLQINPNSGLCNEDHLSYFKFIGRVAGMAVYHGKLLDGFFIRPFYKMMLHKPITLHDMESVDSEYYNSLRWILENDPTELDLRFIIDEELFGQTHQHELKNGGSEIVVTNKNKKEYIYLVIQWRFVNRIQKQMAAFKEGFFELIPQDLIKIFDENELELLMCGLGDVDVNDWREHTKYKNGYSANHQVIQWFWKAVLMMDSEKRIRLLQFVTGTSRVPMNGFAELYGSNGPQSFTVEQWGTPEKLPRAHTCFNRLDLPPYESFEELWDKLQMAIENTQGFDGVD
SMILES,ubiquitin chain formation AUC
CCOC(=O)/C=C/CNCCCCN1c2cc(Cl)ccc2COc2ccccc21.O=C(O)/C=C\C(=O)O,50800 a.u. and 44500 a.u. and 34900 a.u.
CNC(=O)/C=C/CNCCCN1c2ccccc2CCc2ccc(Cl)cc21.Cl,129000 a.u. and 130000 a.u.
CN(C)C(=O)/C=C/CNCCCN1c2ccccc2CCc2ccc(Cl)cc21.Cl,139000 a.u. and 140000 a.u. and 137000 a.u.
CCOC(=O)/C=C/CNCCCCN1c2cc(Cl)ccc2C(=O)N(C)c2ccccc21.O=C(O)/C=C\C(=O)O,61300 a.u. and 65500 a.u. and 60400 a.u.
CONC(=O)/C=C/CNCCCCN1c2ccccc2CCc2ccc(Cl)cc21.O=C(O)/C=C\C(=O)O,24100 a.u. and 23000 a.u. and 27600 a.u. and 26000 a.u. and 27800 a.u. and 23300 a.u.
CCOC(=O)/C=C/CNCCCCN1c2ccccc2COc2ccc(Cl)cc21.O=C(O)/C=C\C(=O)O,21700 a.u. and 40600 a.u. and 22700 a.u.
CCOC(=O)/C=C/CNCCCN1c2ccccc2CCc2ccc(Cl)cc21,27100 a.u. and 24600 a.u. and 25000 a.u.

# Set 4
# Structure (SMILES): CCN1/C(=C/C=C2\CCCC(/C=C/C3=[N+](CC)c4ccccc4C3(C)C)=C2NCCCCCCCCN2CCC(Nc3nc4ccccc4n3Cc3ccc(F)cc3)CC2)C(C)(C)c2ccccc21
# Cell line: U-87 MG
# Concentration: concentration not given
# Baseline: DMSO
refers to,log2 fold change
SLC19A3 mRNA,-1.08
LCTL mRNA,-3.06
YPEL5 mRNA,1.1
NFE2 mRNA,-3.88
NFKB2 mRNA,1.2
PTPRH mRNA,1.99
LRRC32 mRNA,-2.49
SERAC1 mRNA,1.19
KNSTRN mRNA,-1.03
SLC25A43 mRNA,-0.824
MFSD3 mRNA,-0.837
CSPG4 mRNA,-1.23

# Set 5
# Target: Sodium-dependent neutral amino acid transporter B(0)AT1 (SLC6A19, Homo sapiens, UniProt Q695T7)
# Chain of UniProt Q695T7 (whole entry, looked up): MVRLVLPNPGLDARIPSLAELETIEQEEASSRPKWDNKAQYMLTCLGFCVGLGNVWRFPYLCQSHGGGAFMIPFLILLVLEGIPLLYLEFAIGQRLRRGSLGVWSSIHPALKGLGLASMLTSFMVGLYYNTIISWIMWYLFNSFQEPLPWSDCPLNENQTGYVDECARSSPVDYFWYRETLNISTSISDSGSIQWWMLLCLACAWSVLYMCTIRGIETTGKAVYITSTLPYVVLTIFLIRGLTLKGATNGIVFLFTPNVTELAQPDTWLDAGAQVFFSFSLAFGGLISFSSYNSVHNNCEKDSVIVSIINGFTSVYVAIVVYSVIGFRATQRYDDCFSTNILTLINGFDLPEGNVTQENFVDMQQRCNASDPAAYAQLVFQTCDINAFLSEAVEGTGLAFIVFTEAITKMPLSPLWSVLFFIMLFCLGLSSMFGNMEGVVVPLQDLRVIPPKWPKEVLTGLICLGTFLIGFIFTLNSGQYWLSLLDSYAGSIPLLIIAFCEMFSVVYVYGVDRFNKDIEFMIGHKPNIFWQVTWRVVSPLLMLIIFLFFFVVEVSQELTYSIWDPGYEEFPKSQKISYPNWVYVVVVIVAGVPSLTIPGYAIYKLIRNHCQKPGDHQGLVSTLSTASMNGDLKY
# Action: inhibitor
# Technique: FLIPR membrane potential
# Cell line: CHO-BC cells
# Setting: first repeat
SMILES,IC50 [nM]
CC(C)NC(=O)COc1cccc2ccccc12,1350
Cc1cc(OCC(=O)NC(C)C)ccc1Br,430
Cc1cc(NCC(=O)NC(C)C)cc(C)c1Cl,130
CC(C)NC(=O)COc1ccc2ccccc2c1,1930
Cc1cc(OCC(=O)NC(C)C)ccc1I,330
Cc1cc(NCC(=O)NC(C)C)cc(C)c1Br,390
Cc1cc(NCC(=O)NC(C)C)cc(C)c1I,100
Cc1cc(OCC(=O)NC(C)C)ccc1Cl,460

# Set 6
# Compound: C[C@@H]1CN(c2ccc(-c3cc(C(=O)NCCOCCOCCOCCOCCNC(=O)/C=C/c4[nH]cc(C(=O)N[C@@H](CC(N)=O)c5ccc(F)c(Cl)c5)c4-c4ccc(Cl)cc4F)ccc3F)cc2NC(=O)c2c[nH]c(=O)cc2C(F)(F)F)C[C@H](C)N1C
# Observed: thermal unfolding
# Technique: differential scanning fluorimetry
# Concentration: 5.5 µM
# Direction: higher = more unfolded
# WDR5: WD repeat-containing protein 5 (WDR5, Homo sapiens, UniProt P61964)
# DCAF1: DDB1- and CUL4-associated factor 1 (DCAF1, Homo sapiens, UniProt Q9Y4B6)
# Chain of UniProt Q9Y4B6 (whole entry, looked up): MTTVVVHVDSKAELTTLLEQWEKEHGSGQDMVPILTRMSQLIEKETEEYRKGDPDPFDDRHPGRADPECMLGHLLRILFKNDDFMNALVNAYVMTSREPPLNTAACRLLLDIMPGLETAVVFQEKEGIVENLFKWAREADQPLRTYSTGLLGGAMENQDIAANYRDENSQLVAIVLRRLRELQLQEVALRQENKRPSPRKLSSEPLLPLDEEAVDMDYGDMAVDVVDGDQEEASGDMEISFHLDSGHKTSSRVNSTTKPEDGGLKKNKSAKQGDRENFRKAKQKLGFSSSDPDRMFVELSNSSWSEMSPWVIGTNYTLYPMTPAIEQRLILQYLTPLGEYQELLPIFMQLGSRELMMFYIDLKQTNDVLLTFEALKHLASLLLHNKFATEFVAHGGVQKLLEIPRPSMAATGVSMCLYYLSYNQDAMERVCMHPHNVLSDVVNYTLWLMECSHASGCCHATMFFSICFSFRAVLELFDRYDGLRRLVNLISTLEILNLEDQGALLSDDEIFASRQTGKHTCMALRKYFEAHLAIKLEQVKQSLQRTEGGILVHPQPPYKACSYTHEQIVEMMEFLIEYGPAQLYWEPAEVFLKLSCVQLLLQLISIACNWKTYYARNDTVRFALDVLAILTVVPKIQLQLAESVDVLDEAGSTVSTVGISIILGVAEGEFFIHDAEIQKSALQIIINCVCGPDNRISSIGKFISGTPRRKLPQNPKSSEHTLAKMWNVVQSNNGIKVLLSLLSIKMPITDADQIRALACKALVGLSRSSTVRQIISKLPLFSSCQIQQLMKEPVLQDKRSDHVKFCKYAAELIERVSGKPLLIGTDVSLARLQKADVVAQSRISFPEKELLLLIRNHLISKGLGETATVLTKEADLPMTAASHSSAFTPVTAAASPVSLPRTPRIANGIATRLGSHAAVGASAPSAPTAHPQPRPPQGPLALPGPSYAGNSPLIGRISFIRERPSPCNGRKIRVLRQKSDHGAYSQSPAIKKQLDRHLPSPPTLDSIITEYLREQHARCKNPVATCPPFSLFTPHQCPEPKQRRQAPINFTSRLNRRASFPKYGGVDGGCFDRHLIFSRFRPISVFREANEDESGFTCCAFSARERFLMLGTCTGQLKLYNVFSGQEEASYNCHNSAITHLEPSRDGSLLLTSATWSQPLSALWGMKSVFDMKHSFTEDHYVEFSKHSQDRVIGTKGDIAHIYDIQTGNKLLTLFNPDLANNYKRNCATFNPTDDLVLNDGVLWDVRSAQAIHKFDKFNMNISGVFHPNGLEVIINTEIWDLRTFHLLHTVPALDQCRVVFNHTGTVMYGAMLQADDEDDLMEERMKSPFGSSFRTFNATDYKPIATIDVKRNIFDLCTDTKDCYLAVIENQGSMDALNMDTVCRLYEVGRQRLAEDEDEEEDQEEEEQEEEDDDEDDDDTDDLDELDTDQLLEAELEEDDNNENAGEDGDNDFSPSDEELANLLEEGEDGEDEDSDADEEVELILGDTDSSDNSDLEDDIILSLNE
target,temperature,SYPRO Orange fluorescence [a.u.]
WDR5,44.2 °C,15200
WDR5,79.01 °C,37500
DCAF1,91.81 °C,33100
DCAF1,75.61 °C,49300
DCAF1,90.01 °C,35000
DCAF1,29.4 °C,9430
DCAF1,82.81 °C,42400
DCAF1,89.21 °C,35900
WDR5,44.8 °C,15300
DCAF1,43.8 °C,12600
DCAF1,41.6 °C,12100

# Set 7
# Structure (SMILES): Cc1ncsc1-c1ccc(C(CO)NC(=O)C2CC(O)CN2C(=O)C(C(C)C)n2cc(-c3ccc(COc4c(-c5c(C)c(F)cc6[nH]ncc56)c(C5CC5)cc5c(N6CC7CC6CN7)nc(OC6CCOCC6)nc45)cc3)nn2)cc1 (stereo not shown)
cell line,species,dose,time,tumour volume
ASPC1 xenograft,mouse,30 mg/kg twice weekly,day 7,219 mm3 and 179 mm3 and 139 mm3 and 165 mm3 and 140 mm3
GP2d xenograft,mouse,30 mg/kg once weekly,day 11,195 mm3 and 246 mm3 and 232 mm3 and 168 mm3 and 145 mm3
ASPC1 xenograft,mouse,30 mg/kg once weekly,day 4,185 mm3 and 156 mm3 and 178 mm3 and 154 mm3 and 176 mm3
KP-4 xenograft,mouse,30 mg/kg once weekly,day 4,186 mm3 and 148 mm3 and 151 mm3 and 185 mm3 and 175 mm3
,"mouse, PK-59 xenograft",1 mg/kg,day 4,465 mm3 and 390 mm3 and 504 mm3 and 469 mm3 and 427 mm3
,"mouse, PK-59 xenograft",10 mg/kg,day 17,208 mm3 and 187 mm3 and 242 mm3 and 213 mm3 and 182 mm3
PK-1 xenograft,mouse,30 mg/kg once weekly,day 0,237 mm3 and 165 mm3 and 143 mm3 and 150 mm3
,"mouse, lung LXFA sample B PDX",10 mg/kg twice weekly,day 11,43.2 mm3 and 273 mm3 and 79.4 mm3 and 117 mm3 and 314 mm3 and 180 mm3 and 202 mm3 and 88.2 mm3
,"mouse, lung LXFA sample B PDX",10 mg/kg twice weekly,day 14,217 mm3 and 296 mm3 and 323 mm3 and 82.9 mm3 and 112 mm3 and 120 mm3 and 41.7 mm3 and 155 mm3

# Single results of other studies
Compound,target or system,assay,system,conditions,how to read,measurement,value
CCn1cnc2c(NCc3nc4cc(Cl)c(Cl)cc4[nH]3)nc(N3CCN(S(C)(=O)=O)CC3)nc21,"Cyclin-dependent kinase 12, with cyclin K (CDK12, Homo sapiens, UniProt Q9NYV4)","kinase activity, inhibitor, ADP-Glo",,0.0001 µM,,inhibition,-7.9%
COCC1CC2C(CCC3(C)C(O)CCC23)c2ccc(O)cc21 (stereo not shown),PANC-1,"DNA microarray, refers to: KIF20A",,"concentration not given, higher dose arm",baseline: untreated cells,mRNA level ratio,0.282 and 0.268 and 0.271 and 0.277
CCn1cnc2c(NCc3nc4cc(Cl)c(Cl)cc4[nH]3)nc(N3CCN(C(C)=O)CC3)nc21,MDA-MB-231,"cell viability, CellCounting-Lite",,"666.7 nM, 37 °C",higher = more viable cells,luminescence signal,13600 a.u. and 16300 a.u. and 11800 a.u.
Cc1nc(C)c(C=[N+]([O-])C(C)(C)C)nc1C,CDK5,Western blot,MPTP mouse model,"90 mg/kg, unit not given",baseline: β-actin,CDK5 protein level,69.8 and 185 and 139 and 118
CCn1cnc2c(NCc3nc4cc(F)c(F)cc4[nH]3)nc(N3CCn4ncnc4C3)nc21,MDA-MB-231,cell growth or viability,,5 days,,EC50,239 nM
CC(C)C[C@@H]1NC(=O)[C@@H](N(C)C(=O)[C@@H](NC(=O)[C@@H]2C[C@@H](F)CN2C(=O)C2(C(F)(F)F)CC(F)(F)C2)C2CC2)CCCCCCCN(C)C(=O)[C@H](Cc2cc(Cl)cnc2OC2CC2)N(C)C1=O,,immunohistochemistry,"mice, sample A PDX, tumour","oral, 100 mg/kg three times daily for 4 d, 8 h after last dose",,phospho-KNL1 positive cells,4% and 3.1% and 2.2%
